{"data": "Assay results from different studies", "target": "Dual specificity mitogen-activated protein kinase kinase 5 (MAP2K5, Homo sapiens, UniProt Q13163)", "note": "Each line is one published result; not all experiments were run side by side. Values joined by “and” are separate records of one study, mostly repeats; a detail may differ."}
{"SMILES": "COc1cc(Nc2nccc(-c3cnn4nc(OC)ccc34)n2)cc(C(F)(F)F)c1", "test": "binding, competition with immobilised ligand", "conditions": "1 µM", "measurement": "remaining binding", "result": "100%"}
{"SMILES": "Cc1cnc2nc1Nc1cccc(c1)COC/C=C/COCc1cc(ccc1OCCN1CCOCC1)N2", "test": "binding, competition with immobilised ligand", "conditions": "0.1 µM", "measurement": "remaining binding", "result": "82%"}
{"SMILES": "C=CC(=O)N1CCc2ccc(-n3c(=O)ccc4cnc5ccc(-c6cnn(C)c6)cc5c43)cc21", "test": "KINOMEscan", "conditions": "1 µM", "scale": "reference: DMSO control", "measurement": "remaining binding", "result": "85%"}
{"SMILES": "C=CC(=O)N1CCCC(n2c(=O)c3ncccc3n(Cc3ccc(Oc4ccccc4)cc3)c2=O)C1 (stereo not drawn)", "test": "cell-free assay, competition with immobilised ligand", "conditions": "1 µM", "measurement": "remaining binding", "result": "55%"}
{"SMILES": "CC(C)=CC1OC(C)(C)C2C=C3C(=O)C(Cl)=CC(O)C3C3C(O)C4OC4C(=O)C132 (stereo not drawn)", "test": "cell-free assay, competition with immobilised ligand", "conditions": "10 µM", "measurement": "remaining binding", "result": "70%"}
{"SMILES": "C=CC(=O)N1Cc2nc(-c3cc(-c4cc(Cl)cnc4Cl)c(F)cc3F)n(-c3ccncn3)c2C1", "test": "cell-free assay, inhibitor", "conditions": "1 µM", "measurement": "inhibition", "result": "-0.5%"}
{"SMILES": "COc1c(Cl)cccc1Nc1c(-c2ccncc2C#C[C@@]2(C)CCCN2C(=O)/C=C/CN(C)C)[nH]c2c1C(=O)NCC2", "test": "binding, competition with immobilised ligand", "conditions": "3 µM", "measurement": "remaining binding", "result": "73%"}
{"SMILES": "Cc1ccc(-c2c(/C=C(\\C#N)C(=O)NC(C)C)n(CCCO)c3ncnc(N)c23)cc1", "test": "cell-free assay, competition with immobilised ligand", "conditions": "1 µM", "measurement": "remaining binding", "result": "21%"}
{"SMILES": "CNC1C[S+]2CC[S+]3CC[S+](C1)[Ru-4]321([N]=C=S)[n]2c3ccc(OC)cc3c3c4c(c5cc(F)c[n+]1c5c32)C(=O)NC4=O (stereo not drawn)", "test": "KinomeScan", "conditions": "0.1 µM", "scale": "reference: untreated", "measurement": "remaining binding", "result": "78%"}
{"SMILES": "CN1CCN(Cc2ccc(-c3ccc(CO[C@H]4CCC[C@@H]4NC(=O)c4cc(-c5cnn(C)c5)cnc4N)cc3)cc2)CC1", "test": "enzyme activity, inhibitor", "conditions": "0.1 µM", "measurement": "inhibition", "result": "-3%"}
{"SMILES": "COc1cc(Nc2nc(C)cc(-c3cnn4nc(OC)ccc34)n2)cc(C(F)(F)F)c1", "test": "inhibitor", "conditions": "1 µM, MEK5", "scale": "reference: control", "measurement": "remaining activity", "result": "85%"}
{"SMILES": "CCN1CCN(Cc2ccc(C(=O)Nc3ccc(C)c(NCc4cnc5[nH]ccc5c4OC)c3)cc2C(F)(F)F)CC1", "test": "binding, competition with immobilised ligand", "conditions": "1 µM", "measurement": "remaining binding", "result": "1.3%"}
{"SMILES": "CS(=O)(=O)Nc1cccc(-c2csc3cnc(Nc4ccc(N5CCN(CCCCCOc6cccc7c6C(=O)N(C6CCC(=O)NC6=O)C7=O)CC5)cc4)nc23)c1 (stereo not drawn)", "test": "probe labelling, inhibitor, KiNativ chemoproteomics", "system": "MOLT-4", "conditions": "1 µM", "measurement": "inhibition", "result": "28.6%"}
{"SMILES": "N[C@H]1CC[C@H](Nc2nccc(-c3cccnc3Oc3ccc(NC(=O)NC4CC4)c4ccccc34)n2)CC1", "test": "kinobead competition pulldown", "system": "HEK293/HCT116 lysate mixture", "conditions": "10 µM, 1 h, 4 °C", "scale": "lower = stronger competition", "measurement": "log2 LFQ intensity", "result": "23.3 and 23.6"}
{"SMILES": "Nc1ncc2c(n1)-c1c([nH]c3ccc(C#CC4CC4)cc13)CCCC2", "test": "enzyme activity, inhibitor, TR-FRET", "conditions": "10 µM", "measurement": "inhibition", "result": "57%"}
{"SMILES": "CNC(=O)C1CCN(c2cc(C)c(F)cc2NC(=O)c2ccc(-c3cc(O)ccc3C)c(C)c2)CC1", "test": "binding, competition with immobilised ligand", "conditions": "1 µM", "measurement": "remaining binding", "result": "80%"}
{"SMILES": "Nc1ncc(-c2cc(-c3cnn(CC(F)(F)F)c3)ncc2F)nc1C(=O)NC1CNCC(F)C1 (stereo not drawn)", "test": "enzyme activity", "conditions": "1 µM", "scale": "reference: DMSO control", "measurement": "remaining activity", "result": "85.3%"}
{"SMILES": "Nc1ncc2c(n1)-c1c([nH]c3ccc(C4=CCOCC4)cc13)CCC2", "test": "binding, competition with immobilised ligand", "conditions": "1 µM", "measurement": "remaining binding", "result": "85%"}
{"note": "Some of these lines once more:"}
{"SMILES": "CCN1CCN(Cc2ccc(C(=O)Nc3ccc(C)c(NCc4cnc5[nH]ccc5c4OC)c3)cc2C(F)(F)F)CC1", "test": "binding, competition with immobilised ligand", "conditions": "1 µM", "measurement": "remaining binding", "result": "1.3%"}
